Published values collected from several papers.
Lines come from different studies, so protocols differ.
Organism: Mycobacterium tuberculosis

For `CCOc1cc(C=NNC(=S)Nc2cccc(Cl)c2)ccc1OC(=O)CN1C(=O)CSC1=O.NNC(=O)c1ccncc1`, the MIC was 0.0312 µg/mL (growth in combination; 192; together with: reference drug at 1/2 MIC).
The MIC of `CN[C@@H]1[C@H](O)[C@H](NC)[C@H]2O[C@]3(O)[C@H](O[C@@H]2[C@H]1O)O[C@H](C)C[C@H]3NC(=O)Cc1cc(Cl)ccn1` is reported as 0.8 µg/mL.
With `O=c1c(Cl)c(Cl)cnn1Cc1ccccc1` the MIC was 250 µM (bacterial growth; H37Rv, 7H9 medium).
`O=C1NC(=O)C(/N=N/c2nnc(S)[nH]2)C(=O)N1` gave an MIC of over 64 µg/mL (microbial growth, resazurin; H37RV; 5 days).
For `CCCCNc1c(Cl)cnn(-c2ccccc2)c1=O`, the MIC was 900 µM (bacterial growth; H37Rv, 7H9 medium).
With `COc1c(N2CC3CCCNC3C2)c(F)cc2c(=O)c(C(=O)OCc3ccccc3)cn(C3CC3)c12` (stereo not shown) the MIC was 1 µM (microbial growth; H37RV).
`Cc1ccc(-c2nc3ccc(C)cn3c2C(=O)C(=O)NCc2ccc(N(C)C)cc2)cc1` gave an MIC of over 20 µM (microbial growth; H37RV; 5 days).
`C=CCOC(=O)c1ccc(OS(=O)(=O)CCNc2ccc(S(=O)(=O)c3ccc(N)cc3)cc2)cc1` gave an MIC of 1.56 µM (pabC deletion mutant; concentration not given, 12 days).
The MIC of `Cc1ccc2nc(C)c(C(=O)C(=O)N(C)C)n2c1` is reported as over 20 µM (microbial growth; H37RV; 5 days).
The MIC of `Cc1nc2ccc(OC(F)(F)F)cn2c1C(=O)NCc1ccc2oc(-c3ccc(Cl)cc3)nc2c1` is reported as over 10 µM (optical density; H37Rv; 144 h).
`Cc1nn(-c2ccccc2)c(C)c1/N=N/c1nnc(S)[nH]1` gave an MIC of over 64 µg/mL (microbial growth, resazurin; H37RV; 5 days).
The MIC of `CCc1nc2ccc(Br)cn2c1C(=O)NCc1ccc2oc(-c3ccc(Cl)cc3)nc2c1` is reported as 0.2 µM (optical density; H37Rv; 144 h).
For `O=C(CN1C(=O)CSC1=O)Oc1ccc(/C=N/NC(=O)c2ccncc2)cc1Cl`, the MIC was 0.144 µM (Alamar blue; 192).
The MIC of `FC(F)(F)c1ccc(CCNc2cc(-c3ccco3)nc3nncn23)cc1` is reported as 1.6 µM (microbial growth; H37RV; 5 days).
`CCSc1cnn(-c2ccccc2)c(=O)c1Cl` has an MIC of 470 µM (bacterial growth; H37Rv, 7H9 medium).
For `COc1ccc2ncc(F)c(CC[C@H]3OC[C@H](NCc4ccc(Cl)c(Cl)c4)CO3)c2n1`, the MIC was at most 1 µg/mL (microbial growth; H37RV).
`CCc1nc2ccc(OC(F)(F)F)cn2c1C(=O)NCc1ccc2oc(-c3ccc(Cl)cc3)nc2c1` gave an MIC of over 10 µM (optical density; H37Rv; 144 h).
The MIC of `CCOc1cc(/C=N/NC(=O)c2ccncc2)ccc1OC(=O)CN1C(=O)CSC1=O` is reported as 0.283 µM (Alamar blue; 192).
With `CCc1ccn2c(C(=O)NCc3ccc(C)cc3)c(C)nc2c1` the MIC was under 0.195 µM (microbial growth, resazurin; H37RV).
`NC(=S)N/N=C/c1ccc(OC(=O)/C=C2\SC(=O)NC2=O)cc1` gave an MIC of 5.71 µM (Alamar blue; 192).
`COc1ccc2nccc(CC[C@H]3OC[C@H](NC(=O)c4ccc(Cl)cc4)CO3)c2c1` gave an MIC of 2 µg/mL (microbial growth; H37RV).
For `O=C(CN1C(=O)CSC1=O)Oc1ccc(/C=N/NC(=O)c2ccncc2)cc1Br`, the MIC was 0.524 µM (Alamar blue; 192).
The MIC of `Cc1nc2ccc(Br)cn2c1C(=O)NCc1ccc2oc(-c3ccc(Cl)cc3)nc2c1` is reported as 0.2 µM (optical density; H37Rv; 144 h).
The MIC of `COc1ccc2nccc(CC[C@H]3OC[C@H](NCc4ccc(Cl)c(Cl)c4)CO3)c2c1` is reported as at most 1 µg/mL (microbial growth; H37RV).
`CC(C)C[C@H](NC(=O)[C@H](C)NC(=O)[C@H](CCC(=O)O)NC(=O)[C@@H](N)Cc1c[nH]cn1)C(=O)N[C@@H](COP(=O)(O)O)C(=O)N[C@@H](CC(=O)O)C(=O)N1CCC[C@H]1C(=O)N[C@@H](CC(=O)O)C(=O)O` gave an MIC of 50 µg/mL (H37Rv).
The MIC of `CCC(CO)NCCNC(CC)CO.COC(=O)C=C1SC(=NN=Cc2ccc(OC(=O)CN3C(=O)CSC3=O)cc2)NC1=O` is reported as 0.5 µg/mL (growth in combination; H37Rv; together with: reference drug at 1/2 MIC).
With `CCc1nc2cc(C(F)(F)F)ccn2c1C(=O)NCc1ccc2oc(-c3ccc(Cl)cc3)nc2c1` the MIC was over 25 µM (optical density; H37Rv; 144 h).
For `COc1c(Cl)cnn(-c2cccc(C)c2)c1=O`, the MIC was over 1000 µM (microbial growth; H37RV).
`Clc1ccc(CCNc2cc(-c3ccccn3)nc3cc(C4CC4)nn23)cc1` gave an MIC of 42 µM (microbial growth; H37RV).
`Cc1[nH]n(-c2ccccc2)c(=O)c1/N=N/c1nnc(S)s1` gave an MIC of over 64 µg/mL (microbial growth, resazurin; H37RV; 5 days).
`Cc1ccc(CNC(=O)C(=O)c2c(C)nc3ccc(C)cn23)cc1` gave an MIC of 4.5 µM (microbial growth; H37RV; 5 days).
`Cc1nc2cc(C(F)(F)F)ccn2c1C(=O)NCc1ccc2oc(-c3ccc(OC(F)(F)F)cc3)nc2c1` has an MIC of over 25 µM (optical density; H37Rv; 144 h).
`CCCCN(CCCC)CC(O)COc1c2ccoc2c(OC)c2oc(CC)cc(=O)c12` (stereo not shown) gave an MIC of 16 µg/mL (microbial growth, resazurin; H37RV; 21 days).
The MIC of `Cc1nc(=S)[nH]c(C)c1/N=N/c1nnc(S)s1` is reported as 4 to 64 µg/mL (microbial growth, resazurin; H37RV; 5 days).
For `CCc1ccn2c(C(=O)NC(C)c3ccccc3)c(C)nc2c1` (stereo not shown), the MIC was 2.5 µM (microbial growth; H37RV; 5 days).
`NC(=S)NN=Cc1ccc(OC(=O)CN2C(=O)CSC2=O)cc1.NNC(=O)c1ccncc1` has an MIC of 0.0156 µg/mL (growth in combination; 192; together with: reference drug at 1/2 MIC).
For `Clc1ccc(CCNc2cc(-c3ccccn3)nc3ncnn23)cc1`, the MIC was 0.71 µM (microbial growth; H37RV; 5 days).
For `CCc1nc2cc(C(F)(F)F)ccn2c1C(=O)NCc1ccc2oc(-c3ccc(OC(F)(F)F)cc3)nc2c1`, the MIC was over 25 µM (optical density; H37Rv; 144 h).
`COc1c(N2CC3CCCN(C(=O)OCc4cnc([N+](=O)[O-])s4)C3C2)c(F)cc2c(=O)c(C(=O)O)cn(C3CC3)c12` (stereo not shown) gave an MIC of 0.25 µM (microbial growth; H37RV).
`O=C1NN(c2ccccc2)C(=O)C1/N=N/c1nnc(S)[nH]1` (stereo not shown) gave an MIC of over 64 µg/mL (microbial growth, resazurin; H37RV; 5 days).
With `COc1cc(C=NNC(=O)c2ccncc2)ccc1OC(=O)CN1C(=O)CSC1=O.NNC(=O)c1ccncc1` the MIC was 0.0312 µg/mL (growth in combination; H37Rv; together with: reference drug at 1/2 MIC).
`COc1ccc2nccc(CC[C@H]3OC[C@H](NC(=O)c4ccc(Cl)c(Cl)c4)CO3)c2c1` has an MIC of at most 1 µg/mL (microbial growth; H37RV).
The MIC of `CCOc1c(Cl)cnn(-c2ccccc2)c1=O` is reported as 500 µM (bacterial growth; H37Rv, 7H9 medium).
`CCc1nc2ccc(C(F)(F)F)cn2c1C(=O)NCc1ccc2oc(-c3ccc(Cl)cc3)nc2c1` gave an MIC of over 10 µM (optical density; H37Rv; 144 h).
`Cc1nc(=O)[nH]c(C)c1/N=N/c1nnc(S)[nH]1` has an MIC of over 64 µg/mL (microbial growth, resazurin; H37RV; 5 days).
The MIC of `O=c1c(N2CCCC2)c(Cl)cnn1-c1ccccc1` is reported as 910 µM (bacterial growth; H37Rv, 7H9 medium with OADC).

Some of these lines once more:
For `CCCCNc1c(Cl)cnn(-c2ccccc2)c1=O`, the MIC was 900 µM (bacterial growth; H37Rv, 7H9 medium).
The MIC of `Cc1nc2ccc(OC(F)(F)F)cn2c1C(=O)NCc1ccc2oc(-c3ccc(Cl)cc3)nc2c1` is reported as over 10 µM (optical density; H37Rv; 144 h).
The MIC of `Cc1nc(=S)[nH]c(C)c1/N=N/c1nnc(S)s1` is reported as 4 to 64 µg/mL (microbial growth, resazurin; H37RV; 5 days).
For `CCOc1cc(C=NNC(=S)Nc2cccc(Cl)c2)ccc1OC(=O)CN1C(=O)CSC1=O.NNC(=O)c1ccncc1`, the MIC was 0.0312 µg/mL (growth in combination; 192; together with: reference drug at 1/2 MIC).
`Cc1[nH]n(-c2ccccc2)c(=O)c1/N=N/c1nnc(S)s1` gave an MIC of over 64 µg/mL (microbial growth, resazurin; H37RV; 5 days).
The MIC of `CCOc1cc(/C=N/NC(=O)c2ccncc2)ccc1OC(=O)CN1C(=O)CSC1=O` is reported as 0.283 µM (Alamar blue; 192).
The MIC of `CCC(CO)NCCNC(CC)CO.COC(=O)C=C1SC(=NN=Cc2ccc(OC(=O)CN3C(=O)CSC3=O)cc2)NC1=O` is reported as 0.5 µg/mL (growth in combination; H37Rv; together with: reference drug at 1/2 MIC).
